Measurements of several laboratories.
Every numbered part comes from another study and shows a few of its results, in no order.

Study 1
Target: PABPC1L2, full length, GST fusion (mouse, UniProt A0ABA7IW68)
Method: RNAcompete
Molecule type: RNA
Sample: in vitro
Tested at: 20 nM
Notes: 7-mer, probes averaged, single round
Relative to: mean of 7-mers
Direction: higher = stronger binding
Construct (chain): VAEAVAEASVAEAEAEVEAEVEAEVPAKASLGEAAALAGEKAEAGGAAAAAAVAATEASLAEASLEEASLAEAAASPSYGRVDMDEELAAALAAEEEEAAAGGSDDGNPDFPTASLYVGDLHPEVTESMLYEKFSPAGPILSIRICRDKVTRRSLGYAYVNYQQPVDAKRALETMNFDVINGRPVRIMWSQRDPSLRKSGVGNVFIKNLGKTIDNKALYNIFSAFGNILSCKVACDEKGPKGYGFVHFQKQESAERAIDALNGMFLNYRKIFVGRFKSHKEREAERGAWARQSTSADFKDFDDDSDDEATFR
| Oligonucleotide | 7-mer Z-score |
| --- | --- |
| CAUGGAU | 0.00436 |
| AGAACGA | -0.0337 |
| UAAGAAG | -0.00108 |
| UACAGGA | 0.166 |
| GUAGACU | -0.0482 |
| UCUGUUG | -0.427 |
| AGGGCUC | 0.354 |
| AUAGAGU | 0.0261 |
| UUGUAUC | -0.307 |
| AGUCUUA | -0.365 |
| CUGACGU | -0.186 |
| CUUUCCA | -0.311 |
| UAAGGGG | 0.463 |
| GGGUGAU | 0.204 |
| GCAGCGA | 0.00254 |
| UCCCUUA | -0.427 |
| UCGGAAU | -0.173 |
| GCGACAG | 0.135 |
| CCGCUAG | -0.137 |
| UAGGGAC | 0.18 |
| UCCUUAC | -0.374 |
| UGCACGC | -0.171 |
| CAUAACU | -0.122 |
| GCUAAAG | 0.282 |
| CGGUUAU | -0.204 |

Study 2
Target: Centromere-binding protein 1, full length, N-terminal tag (CBF1, Saccharomyces cerevisiae, UniProt P17106, residues 1-351)
Chain of UniProt P17106 (whole entry, looked up): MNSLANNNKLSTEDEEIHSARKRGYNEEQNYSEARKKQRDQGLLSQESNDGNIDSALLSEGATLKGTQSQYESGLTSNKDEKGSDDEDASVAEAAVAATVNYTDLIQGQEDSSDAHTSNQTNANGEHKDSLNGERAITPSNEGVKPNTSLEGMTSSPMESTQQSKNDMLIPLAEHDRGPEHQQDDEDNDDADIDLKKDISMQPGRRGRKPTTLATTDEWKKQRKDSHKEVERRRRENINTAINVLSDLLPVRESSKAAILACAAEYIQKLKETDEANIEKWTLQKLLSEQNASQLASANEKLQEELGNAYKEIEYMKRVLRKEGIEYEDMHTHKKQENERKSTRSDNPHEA
Method: protein-binding microarray
Molecule type: double-stranded DNA, one strand shown
Sample: in vitro
Tested at: 0.8 µM
Notes: whole 60-bp probe, no competitor
Direction: higher = stronger binding
Constant ends, left off below: … GTCTTGATTCGCTTGACGCTGCTG
| Oligonucleotide | fluorescence intensity [a.u.] |
| --- | --- |
| GAAATTAGCGTTATCATCATGATTATAATTACATAG | 542 |
| CTACCCGTCAGCGATGGTGACGTAAACGACTTTTTC | 482 |
| CTAGTAATAGATATTCACATGTAAAAAAAGGTATTC | 658 |
| GAATTACTTCTGTATATCGTGAAGTAGTAAGTGTAG | 549 |
| CTAAAGAGAGTGAATCAGATGAGGATAGGGTTATTC | 528 |
| GAAAATCCCGGATTTCTCATCACGGTTTCCATATAG | 768 |
| GAATTGAAAAATTGAAGTCTGATGTGAATTTGATAG | 563 |
| GAATAATCTTCGTATCGCGTGATGTGTTAGAAGTAG | 1600 |
| CTACCGTTCTGTACGGACCTGACGTTGACTGTGTTC | 524 |
| CTAGGCGCAAATAGTTGCCACGTGCGAGTGCGGTTC | 6100 |
| CTACGAGAAAAGTATTCTGATGTCCAATTCTTCTTC | 511 |
| GAAATCCCCATTGGACACGTTCATGTCATTCATTAG | 522 |
| CTAGTGCTCTTGGATCACGATCCCTCACTTGTATTC | 659 |
| GAATGTCCAACCCATCTGGTGGTTGGGGTGTCCTAG | 475 |
| GAAGCTTTGAAGGTTAACGTCACATCTGCTGAGTAG | 537 |
| GAACGCGGAGTCGCTGATGACGCAATAGGCACATAG | 524 |
| CTAGTCCGCGACAATCACGGGCCTATTTCTACTTTC | 713 |
| CTATAAAAAGTTGACGTCAGCATACAATTTGAATTC | 564 |
| CTATCTTTTTTTCTACACGTTGGTCTGATGTCTTTC | 631 |
| TGTACGAAGCTATTTCACGTGATTATAGTAGTTAGG | 11500 |

Study 3
Target: TAR DNA-binding protein 43, full length, His tag (TARDBP, Homo sapiens, UniProt Q13148, residues 1-414)
Method: RNA Bind-n-Seq
Molecule type: RNA
Sample: in vitro
Tested at: 20 nM
Notes: 6-mer, flanks averaged, single round
Added: 150 mM KCl
Relative to: input library
Direction: higher = stronger binding
| Oligonucleotide | 6-mer enrichment (R) |
| --- | --- |
| UCUAGC | 0.606 |
| UCGAAG | 0.852 |
| CUUCAG | 0.618 |
| CCAACC | 0.636 |
| GAUCUU | 0.58 |
| CCCUUC | 0.62 |
| GGCACU | 1.02 |
| GAUGUU | 0.805 |
| AAACGC | 0.609 |
| UGAUAC | 0.639 |
| GGAUAC | 0.921 |
| CAAGGG | 2.27 |
| GGCUCC | 0.891 |
| CGCGUG | 1.45 |
| UUCAAG | 0.641 |
| ACUCGG | 0.898 |
| GCGCAU | 0.937 |
| GAACGU | 0.85 |

Study 4
Target: Interferon regulatory factor 5, full length, phosphomimetic (IRF5, Homo sapiens, UniProt Q13568-2, residues 1-514, K96S/S451D/S453D/S456D/S462D)
Method: protein-binding microarray
Molecule type: double-stranded DNA, one strand shown
Sample: in vitro
Tested at: 250 nM
Notes: 60-bp whole probe
Added: salmon DNA 0.4 mg/ml
Relative to: random background probes
Direction: higher = stronger binding
Constant ends, left off below: GCCTAGCAC … GTCTTGATTCGCTTGACGCTGCTG
| Oligonucleotide | log fluorescence [z-score] |
| --- | --- |
| TTTCATTTATTTACTCTCTACGTGCTA | 8.31 |
| TCAGTTCACTATTTAAGACTGTGCTAG | 0.39 |
| GCCGATCTCAGTTTCGAGACGTGCTAG | 5.01 |
| GGCGGACTGGGACTGGGGACGTGCTAG | -0.719 |
| GACGCTATCGACACTGGGGACGTGCTA | 2.09 |
| TTAGGACTGGACTTTTGGTTAGTGCTA | 1.06 |
| TTAGGACTGGACTTTCGGTTTGTGCTA | 9.19 |
| TTAGGATTGGGGACTGGGTTAGTGCTA | -0.377 |
| TTAGGACTGATTCTCCTTTAGTGCTAG | -0.0124 |
| TTACGACTGGGTCTCGGTTAGTGCTAG | 0.683 |
| TCACATTAAATTTTAATACTGTGCTAG | 0.822 |
| GACGAGCTGGGGTATCGAGACGTGCTA | 0.0754 |
| GACGAGTTCGGGTATCGAGACGTGCTA | 0.657 |
| TTATGTCTCGGTTTCGGTTAGTGCTAG | 9.16 |
| GACGGTTTCCGACTGCTGACGTGCTAG | 0.126 |
| GACGGTATCGGGTTTTGGGACGTGCTA | 1.94 |
| TTTTTTTTCTACTTCTGTTTGTGCTAG | 2.07 |
| GACCGTTTCGACTATCGGGACGTGCTA | 6.45 |
| GACGGTTTCGGTTCCGGGACGTGCTAG | 9.5 |
| GAGGGACTGGGACTGGGGACGTGCTAG | -0.668 |
| GACGAACTGAGGTTTCGAGACGTGCTA | 1.42 |
| GACGATATCAGACTGGGGACGTGCTAG | 0.357 |
| TGCCCCCACACTCCTAGCACGTGCTAG | -0.233 |
| TTTGATTTCGGGTTTCGATTAGTGCTA | 9.27 |
| CTAGTTTTCATTTTCTGAATGTGCTAG | 3.27 |

Study 5
Target: Fragile X messenger ribonucleoprotein 1, C-terminal low-complexity region (Fmr1, Mus musculus, UniProt P35922)
Method: RNA Bind-n-Seq
Molecule type: RNA
Sample: in vitro
Tested at: 200 nM
Notes: whole 134-nt RNA, ends assumed
Added: 150 mM KCl
Relative to: input library
Direction: higher = stronger binding
Constant ends, left off below: GGGAGUUCUACAGUCCGACGAUC … UGGAAUUCUCGGGUGUCAAGG
| Oligonucleotide | log2 enrichment |
| --- | --- |
| UCCUGUGCUACACAUCGUAUGUACCGAAUCGGGGUUUUUGGGGAAAGGGGAAAAAGGGGAAAGUAUUAUGUUACGCCGUUCGGAUCUGCA | 0.537 |
| GCAGGAAGUAAAAACAAAUGGAAAUGCUUCGGAUAGUGGCAGGGGUGGGGGUUGCUAAGGAAAGGGUGGGAUGGGAGUGGGUGAAGAGUU | 0.0966 |
| AGUCCUGUGCUACACAUCGUAUGUACCGAAUCGGGGCCCCCGGGCCCCCGGCCCCCGGAAAGUAUUAUGUUACGCCGUUCGGAUCUGCAC | -0.757 |
| UGUCAGUAUCAUACAUAACAGAGGAAUGCCUGAAGAAGCUGGACACAAAGCAGCAGACCAACACCCUGCUCAACCUGGUGUGGAGGGACU | -0.411 |
| GUCCUGUGCUACACAUCGUAUGUACCGAAUCGGGUUUUUGGGGUUUUUGGGGUUUUUGGAAAGUAUUAUGUUACGCCGUUCGGAUCUGCA | 0.0719 |
| UGUCCAGCUCUGAAGGGCAAAGUGCAGAAGAUCCUAAUCUGGAAGUGGGGUCAGCCACCAUCUCCCACACCAGUGCCUCGGCCUCCAGAU | -0.064 |
| GUCCUGUGCUACACAUCGUAUGUACCGAAUCGGCCCCCCGGGGCCCCCCGGCCCCCCGGAAAGUAUUAUGUUACGCCGUUCGGAUCUGCA | -0.407 |
| UCCUGUGCUACACAUCGUAUGUACCGAAUCAAACCCCCAAACCCCCAAAUUUUUUUAAAAAAGUAUUAUGUUACGCCGUUCGGAUCUGCA | -0.117 |
| GUCCUGUGCUACACAUCGUAUGUACCGAAUCGGGGAAAAAGGGGAAAAAGGAAAAAGGGAAAGUAUUAUGUUACGCCGUUCGGAUCUGCA | -0.152 |
| GCAGGAAGUAAAAACAAAUGGAAAUGCUUCGGAUAGUGGCAGGGGUGGGGGUUGCUAAGGAAAGGGUGGGAUGGCAGUGGGUAAAGAGUU | 0.21 |
| UCCUGUGCUACACAUCGUAUGUACCGAAUCGGGGUUUUUGGGGUUUUUGGUUUUUGGGGAAAGUAUUAUGUUACGCCGUUCGGAUCUGCA | 0.199 |
| UGUUGAAAUGGGACAGUUGGCAGCGGCUCUGAUGAGCCCGAGAAGAGGCCUGCCCUUGGGUGCGGAGUCUCCCUCCGCACGAUGCUCCCA | -0.674 |
| UCCUCAAGUCCUGUGCUACACAUCGUAUGUACCGAAUCGGGUGGUGGUGGGGAAAGUAUUAUGUUACGCCGUUCGGAUCUGCACUUCCAG | 0.618 |
| UAACUUUAGAGGAGGAUCUGAUGGAUAUGGCAGUGGAAGUGGAUUUGGGGAUGGCUAUAAUGGGUAUGGAGGAGGACCUGGAGGUGGCAA | 0.145 |
